Measurements gathered from unrelated publications.
Every numbered part comes from another study and shows a few of its results, in no order. Changes are numbered by the printed parent chain.

Set 1
Target: Histone acetyltransferase KAT6A, both winged helices, GST fusion (KAT6A, Homo sapiens, UniProt Q92794, residues 1-181)
Technique: protein binding microarray
Form: double-stranded DNA, one strand shown
Medium: in vitro
Concentration: not given
Setting: 8-mer, flanks averaged, mean of 2 arrays, mostly near background
Baseline: not given
Direction: higher = stronger binding
Endpoint: E-score
Residues (chain): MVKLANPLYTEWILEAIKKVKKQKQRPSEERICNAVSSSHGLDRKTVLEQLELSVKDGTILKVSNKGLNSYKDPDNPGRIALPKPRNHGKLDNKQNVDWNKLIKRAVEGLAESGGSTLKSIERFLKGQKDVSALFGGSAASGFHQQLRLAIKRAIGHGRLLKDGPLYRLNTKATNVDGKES
Sequence = CTTGCATC; value = -0.0959
Sequence = CGCGCTTA; value = 0.301
Sequence = AACTTTAC; value = -0.0377
Sequence = AAATGGGC; value = -0.0741
Sequence = ATTATCTC; value = -0.0874
Sequence = CAAGCAAC; value = 0.0254
Sequence = GCGATGCA; value = 0.0801
Sequence = CTTGTATC; value = -0.0878
Sequence = TAGGCCGA; value = 0.0158
Sequence = CCTTCGAC; value = -0.00341
Sequence = ATAAATTA; value = 0.0182
Sequence = ACCAATTC; value = -0.162
Sequence = TACTCACA; value = -0.218
Sequence = TGCCAAAA; value = -0.0857
Sequence = GCCCCTCA; value = -0.0991
Sequence = CTTACTCC; value = -0.0834
Sequence = CGGCCGAA; value = 0.291
Sequence = ATCTGTGC; value = -0.0724
Sequence = CAACAAAG; value = -0.268
Sequence = GGTGATAA; value = -0.00593
Sequence = TCCATCCA; value = -0.212
Sequence = GATTGACA; value = -0.0279
Sequence = CCGTTACC; value = 0.114
Sequence = CGACGTTC; value = 0.0847

Set 2
Target: RNA binding protein fox-1 homolog 2, RRM domain, GST-SBP tag (RBFOX2, Homo sapiens, UniProt O43251-10, residues 100-194)
Technique: RNA Bind-n-Seq
Form: RNA
Medium: in vitro
Concentration: 365 nM
Setting: natural RNA segment, single round, ends assumed
Baseline: no-protein control
Direction: higher = stronger binding
Endpoint: RBNS enrichment (R)
All sequences stand within: GGGAGUUCUACAGUCCGACGAUC … UGGAAUUCUCGGGUGCCAA
Target sequence (chain): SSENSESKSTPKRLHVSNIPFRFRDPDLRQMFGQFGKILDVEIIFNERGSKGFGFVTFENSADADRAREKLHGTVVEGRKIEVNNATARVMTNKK
Sequence = AAGUUCCAGAGGGCUGACCCUCUCUGCAAAACUCUCCCCUGUCCUCUAGACCCCACCCUGGGUGUAUGUGAGUGUGCAAGGGAAGGUGUUGCAUCCCCAGGGGCUGCCGC; value = 0.249
Sequence = GCUUUUUAUUCUAUGAAAACAAUCCUUUUGGGGAAUGUACCUGAAGAGUACAGAGGAGCAAGUUCCCAGAGCAGCAGCCACGGCAUCGUGGCCUGCAGGUGCACCCUCCU; value = 0.393
Sequence = ACCACCCACUCAGGACUCUUCCCCAUCAUCCCUUCCAUUGCCACACCCUAGAUCCAGCCUCAGGAACUAACAAGUUUUGAGAAAAGCAGGUAGUAGAGCAGCAGCUUCGU; value = 0.429
Sequence = UAGGCUGAGCAGUGCAGCGGCGCCCACAGGUUUACACACAAGUUUGGUUUGGUUUCUUCUGUUCUGCACUUUGGAGUCCCUGGGUAUUCCACAUUACAAGUUGAUGUUAU; value = 0.27
Sequence = UUAUUUCAUAGCACCAGUAUUCAGGCUUUCAUGAACAUCAUUUUGGGGGAGCAAGACUUCAUCUGUAUGUACAUUCAGAGUCUUCCCAUAGCUCUUAAACCGUGUGGGUG; value = 0.313
Sequence = ACAUGAGAAAAUGACAGAGGAACUAAUAUAAGAGCAGAUCUUGACCCUUGCUGGGUCACUAUAAUUCUUUAGAAUUACUGAGUGAACUUUAAAAAAAUUUUCUGCAUAGG; value = 0.619
Sequence = UGAGCCGCCACACCCGGCCAUCACACCUGGAUUUUCAGUGGGAGGUUUUUGGUUUGGAGACAUCCAAAGCCUGAAGCCAGGUGGGUGUGGGCAGGGGCUGCAUUUUAUGA; value = 0.653
Sequence = CUGCAAAGCCCUGGAAGCCUGUGACUUAAAAGUCCGGAGAGGGUGGCAAUUGCUUCCUCGAAGACAUGGUGUCACCUUGAAUAGGAAUCUCAGGCAAUCGAGACAGAGAG; value = 0.253
Sequence = AUACAGCAGUCAGAGAUGAGUAUACUAGAAUCAUGGAUUGCUGGAGGUCUUUUAAUCUGAUGUUCUCAGAAGGGGGUGGAUUUAAAUCCUGAAAUAAAUAUUUCAACACA; value = 0.621
Sequence = AAACUUUAAUUUUGAAGAAGAAUAUAUUGACUUACUAAGGGGAAGUAUUCUCAUUUUGAGUGACAUUCAGAGGUUCACGUUUGCUUCUCUGCCGAGCAAAGGGAACGUCC; value = 0.435
Sequence = CAUCUUCCAAUCCCUGGAAAAGUCUGGUCUGAGUGUGACUUGGGAAGCUUUCAGUGCUGCUGUUUGGCCCAGCUCAUUACUUUCUCCCUUUCUCUACCACAGCAAACACA; value = 0.379
Sequence = UAGGUAUUUUUCACUGGCCCAAAGUAUUGCAUUCCCUUAACAGCAAGCACAAGUUCUCUAUAUCACUUGUUUUUUGUUGUUGUUGUUGUUGUCGUCGUUGUUUUGAGACG; value = 1.09

Set 3
Target: RING finger protein unkempt homolog, zinc fingers 1-6, GST-SBP tag (UNK, Homo sapiens, UniProt Q9C0B0, residues 30-357)
Technique: RNA Bind-n-Seq
Form: RNA
Medium: in vitro
Concentration: not given
Setting: RNA with constant flanks, human-mouse chimeric sites, ends assumed
Baseline: input RNA pool
Direction: higher = stronger binding
Endpoint: bound/input enrichment
All sequences stand within: GGGAGUUCUACAGUCCGACGAUC … CAACAGAGGAUUGAGCAUCA
Residues (chain): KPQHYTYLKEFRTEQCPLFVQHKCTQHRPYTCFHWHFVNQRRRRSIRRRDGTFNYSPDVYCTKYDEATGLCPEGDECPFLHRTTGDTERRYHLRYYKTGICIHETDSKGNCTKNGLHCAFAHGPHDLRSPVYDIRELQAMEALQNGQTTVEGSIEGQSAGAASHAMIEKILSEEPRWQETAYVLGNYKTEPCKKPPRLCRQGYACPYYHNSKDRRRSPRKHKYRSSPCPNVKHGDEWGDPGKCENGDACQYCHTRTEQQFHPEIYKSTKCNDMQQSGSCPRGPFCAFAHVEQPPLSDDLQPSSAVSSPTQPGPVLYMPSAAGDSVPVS
Sequence = UUCCCAACCUCCCGCCUCACCCCACCCCCGCUUUUUGGAAAGUUUUUGGCGUUUCUUUUCCUUCCCCAGUUAGAAUUAUUACAGUUUCCCCCGCAAGGGUCUAUCGAAGGGCUUGACGGA; value = 28.9 ratio
Sequence = CACGUGUCUGCAGUGCUUGAUGUGGACUACUCUCCCACUGGGAAGGAAUUUGUGUCUGCCAGCUUUGAUAAGUCUAUUAGAAUCUUUCCUGUGGACAAAAGUCGAAGCAGGGAAGUGUAU; value = 0.597 ratio
Sequence = GCCACCAGAUCCCAGAAACAUGACCCUUGCUGCCUACAAGGAGAAGAUGAAGGAGCUCCCGCUGGUGUCCUUGUUCUGCUCUUGCUUCCUGGCCGAUCCCCUGAAUAAGUCGUCCUACAA; value = 0.248 ratio
Sequence = AAAGCCCAAGUAUUUUGAAAAAACUCGAACAGAUUUGACAAGGGUAGCCAGCUUGGAGUCUAGCAAUUUGCCAAUGUGUUUACCAAUUUUGGGGGCUGUUUUUCUUUUCUUCUUUCAAAU; value = 0.894 ratio
Sequence = CUGAGGAUACCACUGAAGAGACCUUAAAAGAAUCAUUUGAGGGCUCUGUUCGUGCAAGAAUAGUCACCUGACCGGGAACUGGUUCUUCCAAAGGGUUUGGUUUUGUAAGACUUCAACGUG; value = 0.29 ratio
Sequence = AGGAGGAGAUUAAAGGGUGAGAGUGGGGUGGAAGACUGUGUCAUGGCUCUGGAGACACUGUUCAGUGUCCUGCUUUCUCUGUGCAGACUGAUGGCCCCUUACACGCCCUUUCUGACUGAG; value = 0.0676 ratio
Sequence = AACAGAUUUCUCAAGCACAUUCCAAGCGAGAAUGCUGAAAUAGUCAUUGUUGCCCAUGUGCCUUCUGACUGAGCUUUAAUGCUGUUCCAUGUUACAUCUUUCCUUCACUCCAGAAUUGUU; value = 0.169 ratio
Sequence = AAAGAGUGGAUAGAGUGUGCACACGGGAUCGGUUAUACCCGGGCGAAAAAGGAGUGCAAGAUAGAGUUCGAUGACUUCGAAGAGUGCUUGCUUCGGUACAAAACGAUGAGACGUGCACAU; value = 0.294 ratio
Sequence = GCUCCUCUUCCGCACUCAGCCUGGGGACUUUUGGCAAGGACCAGAAUCCAGCUUUCUUUUAAAACUCUCAGUGUAACUGUAUCCCGUGACAUUUCAUUUUUUUUAAAUAGUGUAUUUUUU; value = 2.71 ratio
Sequence = CUGUGACUGAUGGCAGCUGAAGUUUGAGCAGCUGAAGUUGACUCCCUCUCCUUGCCUGAACCCCCCCCCACUGCCCCCCCAUCCCCCAGUGUCGGCUGAGAUGUUGCCUCUGCACGGUUC; value = 0.661 ratio
Sequence = GAGCCCAGCCGGCAGUUUGUAAAGGACUCAAUUCGGCUGGUUAAAAGAUGCACCAAACCCGACAGAAAAGAAUUCCAGAAGAUUGCCAUGGCAACAGCUAUAGGAUUUGCUAUCAUGGGA; value = 0.196 ratio

Set 4
Target: CCNE1, cyclin fold, Cln2 fusion (human)
Technique: yeast growth competition, sequencing
Medium: yeast
Setting: weak parent motif
Baseline: not given
Direction: higher = stronger binding
Endpoint: normalised enrichment score
Starting sequence: CDC42EP1 docking peptide (human); SLVVGKLSFDSSP
Substitution = S11A; value = 0.299
Substitution = G5A; value = 0.161
Substitution = V3A; value = 0.157
Substitution = L2A; value = 0.502
Substitution = F9A; value = -0.197
Substitution = P13A; value = 0.0136
Substitution = S1A; value = 0.453

Some of these lines once more (set 3):
Sequence = AAAGCCCAAGUAUUUUGAAAAAACUCGAACAGAUUUGACAAGGGUAGCCAGCUUGGAGUCUAGCAAUUUGCCAAUGUGUUUACCAAUUUUGGGGGCUGUUUUUCUUUUCUUCUUUCAAAU; value = 0.894 ratio
Sequence = CUGAGGAUACCACUGAAGAGACCUUAAAAGAAUCAUUUGAGGGCUCUGUUCGUGCAAGAAUAGUCACCUGACCGGGAACUGGUUCUUCCAAAGGGUUUGGUUUUGUAAGACUUCAACGUG; value = 0.29 ratio
Sequence = AAAGAGUGGAUAGAGUGUGCACACGGGAUCGGUUAUACCCGGGCGAAAAAGGAGUGCAAGAUAGAGUUCGAUGACUUCGAAGAGUGCUUGCUUCGGUACAAAACGAUGAGACGUGCACAU; value = 0.294 ratio
Sequence = AGGAGGAGAUUAAAGGGUGAGAGUGGGGUGGAAGACUGUGUCAUGGCUCUGGAGACACUGUUCAGUGUCCUGCUUUCUCUGUGCAGACUGAUGGCCCCUUACACGCCCUUUCUGACUGAG; value = 0.0676 ratio
Sequence = UUCCCAACCUCCCGCCUCACCCCACCCCCGCUUUUUGGAAAGUUUUUGGCGUUUCUUUUCCUUCCCCAGUUAGAAUUAUUACAGUUUCCCCCGCAAGGGUCUAUCGAAGGGCUUGACGGA; value = 28.9 ratio
Sequence = GAGCCCAGCCGGCAGUUUGUAAAGGACUCAAUUCGGCUGGUUAAAAGAUGCACCAAACCCGACAGAAAAGAAUUCCAGAAGAUUGCCAUGGCAACAGCUAUAGGAUUUGCUAUCAUGGGA; value = 0.196 ratio
Sequence = CACGUGUCUGCAGUGCUUGAUGUGGACUACUCUCCCACUGGGAAGGAAUUUGUGUCUGCCAGCUUUGAUAAGUCUAUUAGAAUCUUUCCUGUGGACAAAAGUCGAAGCAGGGAAGUGUAU; value = 0.597 ratio
Sequence = AACAGAUUUCUCAAGCACAUUCCAAGCGAGAAUGCUGAAAUAGUCAUUGUUGCCCAUGUGCCUUCUGACUGAGCUUUAAUGCUGUUCCAUGUUACAUCUUUCCUUCACUCCAGAAUUGUU; value = 0.169 ratio
